Published values from different studies.
Each line is one published result; not all experiments were run side by side.
UniProt P37136, sequence (whole entry, looked up): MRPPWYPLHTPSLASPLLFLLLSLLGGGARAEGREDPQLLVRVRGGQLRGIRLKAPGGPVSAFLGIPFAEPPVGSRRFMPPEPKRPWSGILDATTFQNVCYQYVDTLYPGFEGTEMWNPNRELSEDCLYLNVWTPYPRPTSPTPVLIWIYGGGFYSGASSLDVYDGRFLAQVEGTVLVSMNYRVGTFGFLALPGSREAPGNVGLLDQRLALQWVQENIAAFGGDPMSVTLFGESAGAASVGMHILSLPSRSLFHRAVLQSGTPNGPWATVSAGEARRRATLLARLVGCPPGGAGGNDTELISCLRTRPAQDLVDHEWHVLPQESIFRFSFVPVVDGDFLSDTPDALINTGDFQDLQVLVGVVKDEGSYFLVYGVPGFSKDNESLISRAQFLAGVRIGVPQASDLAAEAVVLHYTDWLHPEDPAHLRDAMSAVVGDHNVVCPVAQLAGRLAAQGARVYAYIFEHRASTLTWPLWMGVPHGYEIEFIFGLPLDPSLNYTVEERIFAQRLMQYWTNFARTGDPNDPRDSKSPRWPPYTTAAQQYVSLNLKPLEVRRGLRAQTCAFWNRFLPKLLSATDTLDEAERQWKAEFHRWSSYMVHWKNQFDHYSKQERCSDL

Molecule | tested on | test | system | setting | how to read | quantity | result
chicoric acid | IPEC-J2 monolayer | – | – | with: chloroquine 30 µM | reference: without inhibitor | Papp apical to basolateral | decreased
semaglutide | – | item: unlikely related to drug | human, safety analysis set | concentration not given, 32 weeks, run-in | – | participants with adverse events | 56.3%
maraviroc | – | – | black CYP3A5 poor metabolizers, plasma | 300 mg twice daily | – | AUC(0-12h) | 3440 ng·h/mL
deucravacitinib | – | multiple ascending dose | healthy human | oral, 6 mg twice daily | – | subjects with nervous system disorders | 33.3%
phoxim-oxon | Ache (Rattus norvegicus, UniProt P37136) | inhibitor | rat, postnatal day 70, rat serum | CaE and BChE inhibitors present | – | IC50 | 29 nM

A few entries again:
Molecule | tested on | test | system | setting | how to read | quantity | result
phoxim-oxon | Ache (Rattus norvegicus, UniProt P37136) | inhibitor | rat, postnatal day 70, rat serum | CaE and BChE inhibitors present | – | IC50 | 29 nM
